Experimental data of several laboratories.
Each numbered part is a random draw from the data of one study; scales do not carry over between parts. Values joined by “and” are separate records of one study, mostly repeats; a detail may differ.
Sequence of UniProt P31751 (whole entry, looked up): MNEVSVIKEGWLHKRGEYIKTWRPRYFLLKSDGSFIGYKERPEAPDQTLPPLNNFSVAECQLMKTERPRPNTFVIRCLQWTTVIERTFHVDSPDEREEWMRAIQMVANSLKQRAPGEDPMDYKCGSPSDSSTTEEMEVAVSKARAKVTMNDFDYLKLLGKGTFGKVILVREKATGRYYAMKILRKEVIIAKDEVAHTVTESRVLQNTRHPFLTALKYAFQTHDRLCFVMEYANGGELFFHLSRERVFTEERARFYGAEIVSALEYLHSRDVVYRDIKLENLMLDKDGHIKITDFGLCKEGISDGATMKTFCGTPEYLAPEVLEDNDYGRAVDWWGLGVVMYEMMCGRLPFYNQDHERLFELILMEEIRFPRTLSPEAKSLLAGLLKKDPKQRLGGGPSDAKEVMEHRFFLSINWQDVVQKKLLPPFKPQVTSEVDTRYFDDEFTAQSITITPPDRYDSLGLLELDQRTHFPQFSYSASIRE
Sequence of UniProt P04629 (whole entry, looked up): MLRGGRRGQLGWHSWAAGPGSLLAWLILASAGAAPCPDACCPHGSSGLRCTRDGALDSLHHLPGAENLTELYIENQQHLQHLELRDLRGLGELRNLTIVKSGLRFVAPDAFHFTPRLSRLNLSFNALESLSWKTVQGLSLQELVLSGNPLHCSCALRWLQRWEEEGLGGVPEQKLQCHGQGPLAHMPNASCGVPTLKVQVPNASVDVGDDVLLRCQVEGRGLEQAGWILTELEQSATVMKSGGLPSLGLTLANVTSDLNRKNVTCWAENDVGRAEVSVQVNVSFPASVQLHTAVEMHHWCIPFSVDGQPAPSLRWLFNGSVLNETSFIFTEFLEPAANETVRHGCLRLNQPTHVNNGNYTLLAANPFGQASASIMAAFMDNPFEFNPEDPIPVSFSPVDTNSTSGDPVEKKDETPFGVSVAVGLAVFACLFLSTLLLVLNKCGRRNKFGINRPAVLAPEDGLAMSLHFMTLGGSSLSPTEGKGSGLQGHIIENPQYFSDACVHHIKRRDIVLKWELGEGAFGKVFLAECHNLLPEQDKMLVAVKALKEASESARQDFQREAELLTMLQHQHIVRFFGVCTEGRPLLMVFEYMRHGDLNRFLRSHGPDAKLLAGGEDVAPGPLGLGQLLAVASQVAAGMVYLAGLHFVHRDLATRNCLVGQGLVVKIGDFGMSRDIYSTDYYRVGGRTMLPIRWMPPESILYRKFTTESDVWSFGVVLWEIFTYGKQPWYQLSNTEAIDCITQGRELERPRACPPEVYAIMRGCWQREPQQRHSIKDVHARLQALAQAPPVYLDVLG
Sequence of UniProt P29317 (whole entry, looked up): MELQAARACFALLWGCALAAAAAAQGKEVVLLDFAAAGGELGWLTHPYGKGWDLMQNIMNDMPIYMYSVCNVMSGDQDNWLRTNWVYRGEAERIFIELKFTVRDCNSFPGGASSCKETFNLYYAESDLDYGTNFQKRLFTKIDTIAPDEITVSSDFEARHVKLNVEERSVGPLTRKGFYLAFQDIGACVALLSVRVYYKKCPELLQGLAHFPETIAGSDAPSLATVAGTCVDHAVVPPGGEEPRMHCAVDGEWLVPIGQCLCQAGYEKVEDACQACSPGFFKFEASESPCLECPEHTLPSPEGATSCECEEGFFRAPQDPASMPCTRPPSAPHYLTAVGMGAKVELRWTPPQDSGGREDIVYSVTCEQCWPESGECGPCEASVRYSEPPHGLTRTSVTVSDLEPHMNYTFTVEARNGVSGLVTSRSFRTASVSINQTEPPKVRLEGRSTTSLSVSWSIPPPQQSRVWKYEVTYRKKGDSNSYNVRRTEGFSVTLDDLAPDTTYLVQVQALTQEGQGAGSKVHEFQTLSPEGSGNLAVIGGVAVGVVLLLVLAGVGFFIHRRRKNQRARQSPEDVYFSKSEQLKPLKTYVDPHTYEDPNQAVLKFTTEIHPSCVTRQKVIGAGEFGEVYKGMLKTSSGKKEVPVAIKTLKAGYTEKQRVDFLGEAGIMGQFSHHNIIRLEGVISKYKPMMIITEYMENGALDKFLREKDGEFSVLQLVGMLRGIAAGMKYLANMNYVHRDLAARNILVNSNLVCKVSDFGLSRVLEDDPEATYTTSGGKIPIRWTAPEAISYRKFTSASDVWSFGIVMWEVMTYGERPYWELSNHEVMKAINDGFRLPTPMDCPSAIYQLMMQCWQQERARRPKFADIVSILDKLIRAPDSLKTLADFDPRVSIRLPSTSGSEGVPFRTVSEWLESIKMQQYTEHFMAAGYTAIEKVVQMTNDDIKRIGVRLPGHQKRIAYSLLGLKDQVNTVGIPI
Sequence of UniProt Q9P289 (whole entry, looked up): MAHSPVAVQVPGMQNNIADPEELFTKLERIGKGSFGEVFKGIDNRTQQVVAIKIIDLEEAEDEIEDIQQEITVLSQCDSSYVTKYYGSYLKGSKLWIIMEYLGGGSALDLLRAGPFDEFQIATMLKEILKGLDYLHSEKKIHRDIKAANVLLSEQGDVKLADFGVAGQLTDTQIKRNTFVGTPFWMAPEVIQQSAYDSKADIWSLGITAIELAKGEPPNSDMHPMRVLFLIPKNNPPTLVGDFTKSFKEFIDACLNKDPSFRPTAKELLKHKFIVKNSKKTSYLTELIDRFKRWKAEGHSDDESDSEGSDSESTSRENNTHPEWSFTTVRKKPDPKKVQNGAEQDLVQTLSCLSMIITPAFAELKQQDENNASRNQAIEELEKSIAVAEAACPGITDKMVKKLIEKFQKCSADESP
Sequence of UniProt O60285 (whole entry, looked up): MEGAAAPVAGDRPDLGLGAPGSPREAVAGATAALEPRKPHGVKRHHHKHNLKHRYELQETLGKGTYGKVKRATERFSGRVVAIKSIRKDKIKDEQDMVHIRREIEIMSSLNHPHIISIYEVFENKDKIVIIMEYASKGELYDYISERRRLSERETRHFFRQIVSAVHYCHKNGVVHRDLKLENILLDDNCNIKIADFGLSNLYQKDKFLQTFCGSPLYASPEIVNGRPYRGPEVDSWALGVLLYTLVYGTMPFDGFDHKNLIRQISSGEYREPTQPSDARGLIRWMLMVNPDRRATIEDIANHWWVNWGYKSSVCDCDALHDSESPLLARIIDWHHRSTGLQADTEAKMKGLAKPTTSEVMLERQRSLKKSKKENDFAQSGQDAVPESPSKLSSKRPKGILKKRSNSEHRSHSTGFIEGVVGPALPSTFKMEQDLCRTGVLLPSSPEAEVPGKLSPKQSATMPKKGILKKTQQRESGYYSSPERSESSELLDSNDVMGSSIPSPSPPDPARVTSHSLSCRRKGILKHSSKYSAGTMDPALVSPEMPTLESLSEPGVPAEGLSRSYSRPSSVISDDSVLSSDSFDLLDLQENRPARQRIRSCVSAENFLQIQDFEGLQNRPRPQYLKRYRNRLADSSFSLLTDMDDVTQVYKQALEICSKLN
Sequence of UniProt P35968 (whole entry, looked up): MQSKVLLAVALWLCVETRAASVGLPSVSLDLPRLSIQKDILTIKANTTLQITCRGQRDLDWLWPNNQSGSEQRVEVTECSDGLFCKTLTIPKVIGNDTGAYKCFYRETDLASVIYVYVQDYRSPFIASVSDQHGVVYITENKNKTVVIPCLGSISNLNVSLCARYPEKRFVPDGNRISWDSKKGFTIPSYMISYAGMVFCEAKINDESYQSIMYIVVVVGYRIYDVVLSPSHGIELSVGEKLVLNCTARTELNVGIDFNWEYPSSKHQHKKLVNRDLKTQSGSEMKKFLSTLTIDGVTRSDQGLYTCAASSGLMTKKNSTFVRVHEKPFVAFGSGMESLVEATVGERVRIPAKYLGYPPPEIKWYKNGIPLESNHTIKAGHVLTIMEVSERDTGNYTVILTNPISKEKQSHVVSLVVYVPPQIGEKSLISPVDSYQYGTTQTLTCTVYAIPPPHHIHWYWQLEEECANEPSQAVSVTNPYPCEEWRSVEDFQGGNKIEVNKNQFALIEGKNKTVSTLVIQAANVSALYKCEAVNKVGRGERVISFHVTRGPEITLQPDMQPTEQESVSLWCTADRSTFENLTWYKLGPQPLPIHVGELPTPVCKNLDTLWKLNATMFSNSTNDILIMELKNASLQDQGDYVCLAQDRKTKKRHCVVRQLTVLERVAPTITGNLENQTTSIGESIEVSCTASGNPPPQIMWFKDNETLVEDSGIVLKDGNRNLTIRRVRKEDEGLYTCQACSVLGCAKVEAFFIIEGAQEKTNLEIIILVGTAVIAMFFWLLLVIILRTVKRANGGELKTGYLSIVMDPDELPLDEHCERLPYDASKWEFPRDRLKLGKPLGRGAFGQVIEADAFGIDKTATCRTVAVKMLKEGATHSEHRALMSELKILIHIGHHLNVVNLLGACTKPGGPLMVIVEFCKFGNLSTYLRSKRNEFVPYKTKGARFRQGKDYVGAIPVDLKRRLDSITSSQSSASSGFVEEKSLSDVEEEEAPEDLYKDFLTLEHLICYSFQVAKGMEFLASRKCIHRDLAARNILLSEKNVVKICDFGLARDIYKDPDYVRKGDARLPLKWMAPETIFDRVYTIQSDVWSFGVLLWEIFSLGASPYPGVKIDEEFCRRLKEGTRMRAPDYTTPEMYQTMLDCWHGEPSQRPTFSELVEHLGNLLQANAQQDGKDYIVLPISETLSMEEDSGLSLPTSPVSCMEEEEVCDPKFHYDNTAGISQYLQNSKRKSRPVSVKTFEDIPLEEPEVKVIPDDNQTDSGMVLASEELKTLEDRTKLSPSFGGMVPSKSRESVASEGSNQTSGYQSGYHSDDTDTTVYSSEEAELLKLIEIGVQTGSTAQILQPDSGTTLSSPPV
Sequence of UniProt P28482 (whole entry, looked up): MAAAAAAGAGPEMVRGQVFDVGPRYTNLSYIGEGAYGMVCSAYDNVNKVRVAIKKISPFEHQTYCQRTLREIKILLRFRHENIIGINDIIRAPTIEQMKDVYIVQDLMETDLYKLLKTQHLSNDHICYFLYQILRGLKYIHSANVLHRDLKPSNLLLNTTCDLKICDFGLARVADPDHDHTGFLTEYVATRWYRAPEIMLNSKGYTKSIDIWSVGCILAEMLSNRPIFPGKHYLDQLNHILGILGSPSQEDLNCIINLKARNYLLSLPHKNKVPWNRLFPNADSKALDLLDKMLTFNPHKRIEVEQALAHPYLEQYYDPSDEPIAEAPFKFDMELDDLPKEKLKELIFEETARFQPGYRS

Study 1
SMILES: O=C1c2ccccc2-c2nc3nnnn3nc21
Observed: enzyme activity
Mode: inhibitor
Concentration: 0.5 µM
Reference: control
target	remaining activity
Cyclin-dependent kinase 9, with cyclin K (CDK9, Homo sapiens, UniProt P50750)	74.4%
TLK2 (Homo sapiens, UniProt Q86UE8)	100%
AKT2 (Homo sapiens, UniProt P31751)	55.8%
RPS6KA4 (Homo sapiens, UniProt O75676)	72.2%
MET (Homo sapiens, UniProt P08581)	83.3%
PAK3 (Homo sapiens, UniProt O75914)	97.1%
CLK4 (Homo sapiens, UniProt Q9HAZ1)	78.3%
DCLK2 (Homo sapiens, UniProt Q8N568)	86.5%
MAPK1 (Homo sapiens, UniProt P28482)	87.5%
PNCK (Homo sapiens, UniProt Q6P2M8)	83.4%
MAPK11 (Homo sapiens, UniProt Q15759)	101%
KDR (Homo sapiens, UniProt P35968)	1.95%
DDR2 (Homo sapiens, UniProt Q16832)	58.7%
MAPK14 (Homo sapiens, UniProt Q16539)	88.6%

Study 2
Organism: Plasmodium berghei
Mode: inhibitor
Cells: Huh-7
Strain: GFP-expressing sporozoites, liver stage
Concentration: 10 µM
Time: 24 h
Reference: untreated control
Compound	infection rate
CC(CCc1ccc(O)cc1)NCCc1ccc(O)c(O)c1 (stereo not drawn)	98.4%
C[N+](C)(C)CC(=O)O	103%
NC12CC3CC(CC(C3)C1)C2	86.5%
Oc1c(Cl)cc(Cl)cc1Sc1cc(Cl)cc(Cl)c1O	34.5%
CCN(CC)CCCC(C)Nc1ccnc2cc(Cl)ccc12 (stereo not drawn)	119%
CN(C)CCCN1c2ccccc2Sc2ccc(Cl)cc21	79.1%
COc1cc(C(=O)NCCCCCC(=O)O)cc(OC)c1OC	85.9%
CCOC(=O)[C@H](CCc1ccccc1)N[C@H]1CCc2ccccc2N(CC(=O)O)C1=O	75%
CCC(=O)OCC(=O)[C@@]1(OC(=O)CC)[C@@H](C)C[C@H]2[C@@H]3CCC4=CC(=O)C=C[C@]4(C)[C@@]3(F)[C@@H](O)C[C@@]21C	85.1%

Study 3
Cell line: mouse MPNST tumor cells
Method: high-content immunofluorescence imaging
Measured: nuclear SOX9
Concentration: 10 µM
Time: 12 h
Setting: mean of 2 replicates
Reference: DMSO control
Direction: higher = more nuclear SOX9
Structure (SMILES)	nuclear SOX9 intensity
COC(=O)Nc1nc2ccc(SC(C)C)cc2[nH]1	182 % of DMSO
CCCCNc1ccc(C(=O)OCCN(C)C)cc1	99.5 % of DMSO
Clc1ccc(CCCOCCCN2CCCCC2)cc1	115 % of DMSO
COc1cc2ncn(-c3cc(OCc4ccccc4C(F)(F)F)c(C(N)=O)s3)c2cc1OC	104 % of DMSO
CN1CCC(=C2c3ccccc3CCc3cccnc32)CC1	97.5 % of DMSO and 97 % of DMSO
CC[C@H](C)C(=O)O[C@H]1C[C@@H](C)C=C2C=C[C@H](C)[C@H](CC[C@@H]3C[C@@H](O)CC(=O)O3)[C@H]21	123 % of DMSO and 112 % of DMSO
CC(NC(=O)Cc1cc(F)cc(F)c1)C(=O)NC(C(=O)OC(C)(C)C)c1ccccc1 (stereo not drawn)	102 % of DMSO
COc1ccc(-c2c(C)nn3c(C(F)(F)F)cc(C)nc23)c(F)c1F	111 % of DMSO
C[n+]1ccccc1/C=N/O	92.1 % of DMSO
Cc1ccc(C(C)C)cc2c(C)ccc1-2	103 % of DMSO
O=C1C=CC(=O)C2=C1C1c3ccccc3C2c2ccccc21	93.2 % of DMSO

Study 4
SMILES: COCCOc1nc(-c2ccc(Cl)nc2)nc2c1CN(C(=O)c1ncn3ccccc13)CC2
Observed: cell-free assay
Method: competition with immobilised ligand
Concentration: 0.1 µM
target	remaining binding [%]
BTK (Homo sapiens, UniProt Q06187)	100
SYK (Homo sapiens, UniProt P43405)	100
AKT2 (Homo sapiens, UniProt P31751)	100
DSTYK (Homo sapiens, UniProt Q6XUX3)	100
STK26 (Homo sapiens, UniProt Q9P289)	100
WNK1 (Homo sapiens, UniProt Q9H4A3)	100
NUAK1 (Homo sapiens, UniProt O60285)	100
EPHA2 (Homo sapiens, UniProt P29317)	100
MAP3K10 (Homo sapiens, UniProt Q02779)	100
NTRK1 (Homo sapiens, UniProt P04629)	100
Tyrosine-protein kinase ABL1, phosphorylated (ABL1, Homo sapiens, UniProt P00519, F317L)	100

For quick reference, copied from above (study 4):
target	remaining binding [%]
AKT2 (Homo sapiens, UniProt P31751)	100
MAP3K10 (Homo sapiens, UniProt Q02779)	100
BTK (Homo sapiens, UniProt Q06187)	100
